Experimental data from different studies.
Lines come from different studies, so protocols differ. Numbers after ± are the reported error.

Structure (SMILES) | target or system | assay | system | conditions | scale | endpoint | result
Cc1cc([C@H]2C[C@H]3[C@@H](CF)SC(N)=N[C@@]3(c3ccc(F)cc3F)CO2)on1 | – | refers to: Aβx-40 | Mus musculus wild-type, cerebrospinal fluid | subcutaneous, 100 mg/kg, 7 h | – | Aβ40 level | 0.44 ng/mL
O=C(O)CNC(=O)Cc1ccccc1 | – | – | ventricular cardiomyocytes, C57BL/6 mouse | dose not given, 0.648 s | – | sarcomere length | 1.72 µm
Nc1ncnc2c1ncn2[C@@H]1O[C@H](COP(=O)(O)OP(=O)(O)OP(=O)(O)OC[C@@H]2O[C@H](n3cnc4c(N)ncnc43)[C@@H](O)[C@H]2O)[C@@H](O)[C@H]1O | – | binding, MIDAS equilibrium dialysis LC-MS | A2AR-BRIL thermostabilized | concentration not given | baseline: no-protein control | log2 fold change | 0.419
CC(C)NCC(O)c1ccc(O)c(O)c1 (centres unmarked) | – | – | ventricular cardiomyocytes, C57BL/6 mouse | dose not given, 0.404 s | – | sarcomere length | 1.72 µm
CCn1cc(-c2cc(Cn3ccnc3)cc3c2CCN([C@H](c2cc(OC)ccn2)C2CC2)C3=O)c(C(F)(F)F)n1 | SU-DHL-6 | cell growth, inhibitor | – | 120 h | – | EC50 | 1450 nM
CC(C)C[C@H](NC(=O)C[C@H](O)[C@H](CC(C)C)NC(=O)[C@H](Cc1c[nH]cn1)NC(=O)CNC(=O)[C@@H](NC(=O)[C@H](C)NC(=O)[C@H](Cc1c[nH]c2ccccc12)NC(=O)[C@H](CCC(N)=O)NC(=O)[C@@H](Cc1ccccc1)NC(=O)COCCOCCNC(=O)CCC(C(=O)O)N1CCN(CC(=O)O)CCN(CC(=O)O)CCN(CC(=O)O)CC1)C(C)C)C(N)=O (some centres unmarked) [lutetium-177 labelled] | – | – | female BALB/c nu/nu mice, brain | intravenous, 100 pmol, 2 h, together with: PA 300 µg | – | tissue uptake | 0.012 ± 0.002 %ID/g
O=P(O)(O)C(Cl)(Cl)P(=O)(O)O | – | immunostaining | mouse, SAH model, meninges | dose not given, day 1 | baseline: total area | GFAP-positive area | 7.13%
CC(=O)N[C@H]1[C@H](O[C@H]2[C@H](O)[C@@H](NC(C)=O)C(O)O[C@@H]2CO)O[C@H](CO)[C@@H](O)[C@@H]1O (some centres unmarked) | – | binding, MIDAS equilibrium dialysis LC-MS | A2AR-BRIL thermostabilized | concentration not given | baseline: no-protein control | log2 fold change | -0.107
NC(=O)c1cnc2[nH]ccc2c1N[C@@H]1[C@@H]2CC3C[C@H]1C[C@@](O)(C3)C2 | – | flow cytometry, refers to: CD8+ naive T cells | Japanese healthy subjects, peripheral blood | oral, 30 mg twice daily, day 4 | – | change from baseline | -1.05%
N#Cc1ccc2c(c1)[C@H]1CCCN(C(=O)c3ccc4[nH]cnc4c3)[C@H]1C2 | – | – | T2DM patients with overweight or obesity, plasma | oral, 240 mg, day 15 (360 h), multiple dosing, mean | – | fasting plasma insulin | 16.6 mU/L
OC(CCN1CCCCC1)(c1ccccc1)C1CC2C=CC1C2 (centres unmarked) | – | resting-state EEG | healthy elderly humans | oral, 2 mg, eyes open, LS mean | baseline: baseline | change, EEG Alpha power, in O1-Pz | 9.3%
Cn1cc(-c2ccc(-c3cncc(Cl)c3N3CCC4(CCNC4=O)CC3)cc2)cn1 | COLO 205 | gene expression, microarray, refers to: TNFRSF12A mRNA | – | concentration not given, 2 h | baseline: untreated cells | log2 fold change | 2.46
Nc1ncnc2c1ncn2C1CC(O)C(CO)O1 (centres unmarked) | – | binding, MIDAS equilibrium dialysis LC-MS | A2AR-BRIL thermostabilized | concentration not given | baseline: no-protein control | log2 fold change | 0.0875
CSc1cc(Oc2ccnc3[nH]c(=O)cnc23)ccc1NC(=O)Nc1cc(C(C)(C)C)nn1-c1ccccc1 | patient-derived cell line clone A | RPPA, refers to: phosphorylated Tuberin | human | 1 µM, 4 h | baseline: DMSO | phospho ratio | 1.23
N#Cc1ccn2c(-c3ccncc3)c(-c3ccc(F)cc3)nc2c1 | – | kinase binding, competitor, MIB/MS competition, refers to: RCK2 | Candida albicans cell lysate | 10 µM | baseline: DMSO | log2 fold change | -0.119
CCn1cc(-c2cc(Cn3ccoc3=N)cc3c2CCN([C@@H](C)c2cc(OC)ccn2)C3=O)c(C(F)(F)F)n1 | SW480 | cell growth, inhibitor | – | 120 h | – | EC50 | > 30000 nM
Cc1ncc(COP(=O)(O)O)c(CN)c1O | – | binding, MIDAS equilibrium dialysis LC-MS | A2AR-BRIL thermostabilized | concentration not given | baseline: no-protein control | log2 fold change | 0.634

Repeated from above:
Structure (SMILES) | target or system | assay | system | conditions | scale | endpoint | result
O=C(O)CNC(=O)Cc1ccccc1 | – | – | ventricular cardiomyocytes, C57BL/6 mouse | dose not given, 0.648 s | – | sarcomere length | 1.72 µm
Nc1ncnc2c1ncn2[C@@H]1O[C@H](COP(=O)(O)OP(=O)(O)OP(=O)(O)OC[C@@H]2O[C@H](n3cnc4c(N)ncnc43)[C@@H](O)[C@H]2O)[C@@H](O)[C@H]1O | – | binding, MIDAS equilibrium dialysis LC-MS | A2AR-BRIL thermostabilized | concentration not given | baseline: no-protein control | log2 fold change | 0.419
